{"data": "Experimental data from different studies", "note": "Every numbered part comes from another study and shows a few of its results, in no order. Several values in a cell are separate wells, animals, samples, runs or records.", "UniProt P48736, sequence (whole entry, looked up)": "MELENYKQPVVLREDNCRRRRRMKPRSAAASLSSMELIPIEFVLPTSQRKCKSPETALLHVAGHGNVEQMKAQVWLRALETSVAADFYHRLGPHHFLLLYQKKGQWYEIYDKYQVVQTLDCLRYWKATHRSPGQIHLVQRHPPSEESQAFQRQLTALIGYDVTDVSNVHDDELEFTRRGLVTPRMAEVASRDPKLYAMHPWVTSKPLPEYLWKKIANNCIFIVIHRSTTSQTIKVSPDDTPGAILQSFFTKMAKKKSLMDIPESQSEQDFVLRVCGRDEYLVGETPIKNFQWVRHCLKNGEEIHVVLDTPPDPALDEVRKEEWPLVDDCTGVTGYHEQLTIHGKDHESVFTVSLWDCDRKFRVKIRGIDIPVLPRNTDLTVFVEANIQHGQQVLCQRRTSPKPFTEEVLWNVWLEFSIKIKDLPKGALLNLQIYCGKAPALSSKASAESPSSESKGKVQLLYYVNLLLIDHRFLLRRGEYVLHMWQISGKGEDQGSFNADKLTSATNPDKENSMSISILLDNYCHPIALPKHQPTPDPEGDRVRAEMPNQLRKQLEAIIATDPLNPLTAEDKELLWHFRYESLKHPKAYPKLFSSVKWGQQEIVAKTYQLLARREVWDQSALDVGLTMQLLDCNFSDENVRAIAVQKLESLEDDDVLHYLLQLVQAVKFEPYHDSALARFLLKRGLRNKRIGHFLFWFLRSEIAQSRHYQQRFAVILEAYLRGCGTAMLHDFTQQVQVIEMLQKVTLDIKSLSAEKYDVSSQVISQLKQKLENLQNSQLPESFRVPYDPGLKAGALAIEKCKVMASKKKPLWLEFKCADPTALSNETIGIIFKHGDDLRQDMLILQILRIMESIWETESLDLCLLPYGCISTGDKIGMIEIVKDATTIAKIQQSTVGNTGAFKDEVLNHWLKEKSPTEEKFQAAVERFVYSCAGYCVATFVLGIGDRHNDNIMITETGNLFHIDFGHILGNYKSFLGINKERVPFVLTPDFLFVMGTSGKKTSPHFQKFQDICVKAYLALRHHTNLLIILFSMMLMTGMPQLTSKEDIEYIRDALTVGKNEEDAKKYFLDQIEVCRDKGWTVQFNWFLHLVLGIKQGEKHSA", "UniProt Q14012, sequence (whole entry, looked up)": "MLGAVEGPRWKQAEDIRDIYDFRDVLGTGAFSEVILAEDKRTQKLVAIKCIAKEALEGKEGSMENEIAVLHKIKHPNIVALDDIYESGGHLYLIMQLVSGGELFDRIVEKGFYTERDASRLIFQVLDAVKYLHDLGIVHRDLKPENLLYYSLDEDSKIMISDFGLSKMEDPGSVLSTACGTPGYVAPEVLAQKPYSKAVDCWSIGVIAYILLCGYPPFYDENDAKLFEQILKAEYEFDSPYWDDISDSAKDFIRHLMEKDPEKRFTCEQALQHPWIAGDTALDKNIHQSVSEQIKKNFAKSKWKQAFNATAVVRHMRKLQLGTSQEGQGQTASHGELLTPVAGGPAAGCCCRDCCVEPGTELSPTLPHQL", "UniProt Q99558, sequence (whole entry, looked up)": "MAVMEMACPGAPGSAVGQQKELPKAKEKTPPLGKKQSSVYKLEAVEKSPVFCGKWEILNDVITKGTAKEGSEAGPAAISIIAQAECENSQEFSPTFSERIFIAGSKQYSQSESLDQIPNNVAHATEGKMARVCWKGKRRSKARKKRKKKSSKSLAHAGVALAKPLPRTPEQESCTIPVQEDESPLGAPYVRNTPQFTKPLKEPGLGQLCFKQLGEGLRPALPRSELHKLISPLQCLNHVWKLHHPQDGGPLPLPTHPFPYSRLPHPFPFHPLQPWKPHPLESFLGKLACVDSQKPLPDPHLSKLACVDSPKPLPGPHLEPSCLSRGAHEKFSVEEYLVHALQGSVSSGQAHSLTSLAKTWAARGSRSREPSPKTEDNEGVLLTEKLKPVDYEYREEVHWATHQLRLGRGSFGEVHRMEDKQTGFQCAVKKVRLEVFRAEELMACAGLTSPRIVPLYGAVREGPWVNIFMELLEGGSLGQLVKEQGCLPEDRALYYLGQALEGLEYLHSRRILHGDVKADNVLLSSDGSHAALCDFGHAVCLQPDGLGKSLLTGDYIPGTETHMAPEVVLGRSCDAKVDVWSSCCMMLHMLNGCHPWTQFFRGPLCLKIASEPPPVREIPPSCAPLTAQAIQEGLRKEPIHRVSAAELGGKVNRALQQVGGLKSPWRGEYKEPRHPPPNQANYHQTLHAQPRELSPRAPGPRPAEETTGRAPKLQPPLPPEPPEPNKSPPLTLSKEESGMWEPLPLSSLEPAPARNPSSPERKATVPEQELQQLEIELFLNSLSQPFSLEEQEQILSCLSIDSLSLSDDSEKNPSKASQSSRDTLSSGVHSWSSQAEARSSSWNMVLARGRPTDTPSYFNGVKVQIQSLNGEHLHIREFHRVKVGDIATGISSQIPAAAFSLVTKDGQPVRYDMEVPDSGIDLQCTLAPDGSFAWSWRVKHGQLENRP", "UniProt Q08345, sequence (whole entry, looked up)": "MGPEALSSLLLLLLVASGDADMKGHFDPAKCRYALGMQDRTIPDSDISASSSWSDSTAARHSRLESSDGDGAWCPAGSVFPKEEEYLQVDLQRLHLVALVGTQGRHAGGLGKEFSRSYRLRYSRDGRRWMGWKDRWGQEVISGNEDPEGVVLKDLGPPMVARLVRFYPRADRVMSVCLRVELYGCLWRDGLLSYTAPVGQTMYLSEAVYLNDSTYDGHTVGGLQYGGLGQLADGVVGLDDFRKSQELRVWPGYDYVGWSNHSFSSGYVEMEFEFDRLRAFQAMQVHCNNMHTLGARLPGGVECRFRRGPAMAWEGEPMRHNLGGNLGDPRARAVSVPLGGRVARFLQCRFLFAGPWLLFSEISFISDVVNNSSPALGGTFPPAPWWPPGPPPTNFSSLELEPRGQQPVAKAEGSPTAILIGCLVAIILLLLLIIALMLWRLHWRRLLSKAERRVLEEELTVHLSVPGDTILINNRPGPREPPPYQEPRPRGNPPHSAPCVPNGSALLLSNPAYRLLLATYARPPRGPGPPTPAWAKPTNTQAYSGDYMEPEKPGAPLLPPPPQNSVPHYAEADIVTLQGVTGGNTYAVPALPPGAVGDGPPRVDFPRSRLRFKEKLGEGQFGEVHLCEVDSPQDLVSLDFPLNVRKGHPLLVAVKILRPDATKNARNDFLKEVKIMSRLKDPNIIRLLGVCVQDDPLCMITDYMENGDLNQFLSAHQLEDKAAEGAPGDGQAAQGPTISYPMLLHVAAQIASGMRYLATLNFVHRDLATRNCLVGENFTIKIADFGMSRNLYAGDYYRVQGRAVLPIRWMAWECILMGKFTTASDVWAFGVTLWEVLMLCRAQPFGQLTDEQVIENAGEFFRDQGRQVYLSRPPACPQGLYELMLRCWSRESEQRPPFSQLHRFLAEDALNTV", "UniProt P49137, sequence (whole entry, looked up)": "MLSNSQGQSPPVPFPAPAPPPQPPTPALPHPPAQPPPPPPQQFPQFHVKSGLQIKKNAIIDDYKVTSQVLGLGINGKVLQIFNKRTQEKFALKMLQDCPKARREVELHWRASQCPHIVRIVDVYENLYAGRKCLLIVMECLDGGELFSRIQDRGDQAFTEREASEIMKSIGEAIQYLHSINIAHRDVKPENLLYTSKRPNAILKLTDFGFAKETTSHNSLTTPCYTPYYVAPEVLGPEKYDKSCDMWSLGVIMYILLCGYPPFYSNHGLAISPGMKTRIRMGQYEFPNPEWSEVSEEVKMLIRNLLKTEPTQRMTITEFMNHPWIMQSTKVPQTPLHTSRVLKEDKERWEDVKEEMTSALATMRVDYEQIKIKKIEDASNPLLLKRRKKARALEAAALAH"}
{"data": "Series 1", "SMILES": "CCC1(c2cccc(-c3cn(C)nc3C)c2)C2=C(Nc3n[nH]cc31)C(F)C(C)(C)CC2=O (single isomer, unassigned)", "tested at": "1 µM"}
{"target": "Proto-oncogene tyrosine-protein kinase ROS (ROS1, Homo sapiens, UniProt P08922)", "read-out": "kinase binding", "technique": "KINOMEscan", "baseline": "DMSO control", "remaining binding [%]": 81}
{"target": "Ephrin type-A receptor 7 (EPHA7, Homo sapiens, UniProt Q15375)", "read-out": "binding", "technique": "competition with immobilised ligand", "remaining binding [%]": 100}
{"target": "Mitogen-activated protein kinase kinase kinase 14 (MAP3K14, Homo sapiens, UniProt Q99558)", "read-out": "kinase binding", "technique": "KINOMEscan", "baseline": "DMSO control", "remaining binding [%]": 100}
{"target": "Epidermal growth factor receptor (EGFR, Homo sapiens, UniProt P00533, A750P/del747-749)", "read-out": "binding", "technique": "competition with immobilised ligand", "remaining binding [%]": 100}
{"target": "Serine/threonine-protein kinase Nek2 (NEK2, Homo sapiens, UniProt P51955)", "read-out": "binding", "technique": "competition with immobilised ligand", "remaining binding [%]": 100}
{"target": "Fibroblast growth factor receptor 2 (FGFR2, Homo sapiens, UniProt P21802)", "read-out": "binding", "technique": "competition with immobilised ligand", "remaining binding [%]": 100}
{"target": "ALK tyrosine kinase receptor (ALK, Homo sapiens, UniProt Q9UM73)", "read-out": "kinase binding", "technique": "KINOMEscan", "baseline": "DMSO control", "remaining binding [%]": 84}
{"target": "Epithelial discoidin domain-containing receptor 1 (DDR1, Homo sapiens, UniProt Q08345)", "read-out": "binding", "technique": "competition with immobilised ligand", "remaining binding [%]": 95}
{"target": "Tyrosine-protein kinase SYK (SYK, Homo sapiens, UniProt P43405)", "read-out": "kinase binding", "technique": "KINOMEscan", "baseline": "DMSO control", "remaining binding [%]": 100}
{"target": "SRSF protein kinase 3 (SRPK3, Homo sapiens, UniProt Q9UPE1)", "read-out": "binding", "technique": "competition with immobilised ligand", "remaining binding [%]": 100}
{"target": "Phosphatidylinositol 4,5-bisphosphate 3-kinase catalytic subunit alpha isoform (PIK3CA, Homo sapiens, UniProt P42336, E545K)", "read-out": "kinase binding", "technique": "KINOMEscan", "baseline": "DMSO control", "remaining binding [%]": 59}
{"target": "Epidermal growth factor receptor (EGFR, Homo sapiens, UniProt P00533, del746-750)", "read-out": "binding", "technique": "competition with immobilised ligand", "remaining binding [%]": 100}
{"target": "MAP kinase-activated protein kinase 2 (MAPKAPK2, Homo sapiens, UniProt P49137)", "read-out": "kinase binding", "technique": "KINOMEscan", "baseline": "DMSO control", "remaining binding [%]": 100}
{"target": "High affinity nerve growth factor receptor (NTRK1, Homo sapiens, UniProt P04629)", "read-out": "binding", "technique": "competition with immobilised ligand", "remaining binding [%]": 100}
{"data": "Series 2", "SMILES": "CNc1ncc2cc(-c3cc(OC)cc(OC)c3Cl)c(=O)n(CCc3ccc(NC(=O)C(C#N)=CC(C)(C)N4CCOCC4)cc3)c2n1", "read-out": "kinase activity", "FLT1": "Vascular endothelial growth factor receptor 1 (FLT1, Homo sapiens, UniProt P17948)", "UniProt P17948, sequence (whole entry, looked up)": "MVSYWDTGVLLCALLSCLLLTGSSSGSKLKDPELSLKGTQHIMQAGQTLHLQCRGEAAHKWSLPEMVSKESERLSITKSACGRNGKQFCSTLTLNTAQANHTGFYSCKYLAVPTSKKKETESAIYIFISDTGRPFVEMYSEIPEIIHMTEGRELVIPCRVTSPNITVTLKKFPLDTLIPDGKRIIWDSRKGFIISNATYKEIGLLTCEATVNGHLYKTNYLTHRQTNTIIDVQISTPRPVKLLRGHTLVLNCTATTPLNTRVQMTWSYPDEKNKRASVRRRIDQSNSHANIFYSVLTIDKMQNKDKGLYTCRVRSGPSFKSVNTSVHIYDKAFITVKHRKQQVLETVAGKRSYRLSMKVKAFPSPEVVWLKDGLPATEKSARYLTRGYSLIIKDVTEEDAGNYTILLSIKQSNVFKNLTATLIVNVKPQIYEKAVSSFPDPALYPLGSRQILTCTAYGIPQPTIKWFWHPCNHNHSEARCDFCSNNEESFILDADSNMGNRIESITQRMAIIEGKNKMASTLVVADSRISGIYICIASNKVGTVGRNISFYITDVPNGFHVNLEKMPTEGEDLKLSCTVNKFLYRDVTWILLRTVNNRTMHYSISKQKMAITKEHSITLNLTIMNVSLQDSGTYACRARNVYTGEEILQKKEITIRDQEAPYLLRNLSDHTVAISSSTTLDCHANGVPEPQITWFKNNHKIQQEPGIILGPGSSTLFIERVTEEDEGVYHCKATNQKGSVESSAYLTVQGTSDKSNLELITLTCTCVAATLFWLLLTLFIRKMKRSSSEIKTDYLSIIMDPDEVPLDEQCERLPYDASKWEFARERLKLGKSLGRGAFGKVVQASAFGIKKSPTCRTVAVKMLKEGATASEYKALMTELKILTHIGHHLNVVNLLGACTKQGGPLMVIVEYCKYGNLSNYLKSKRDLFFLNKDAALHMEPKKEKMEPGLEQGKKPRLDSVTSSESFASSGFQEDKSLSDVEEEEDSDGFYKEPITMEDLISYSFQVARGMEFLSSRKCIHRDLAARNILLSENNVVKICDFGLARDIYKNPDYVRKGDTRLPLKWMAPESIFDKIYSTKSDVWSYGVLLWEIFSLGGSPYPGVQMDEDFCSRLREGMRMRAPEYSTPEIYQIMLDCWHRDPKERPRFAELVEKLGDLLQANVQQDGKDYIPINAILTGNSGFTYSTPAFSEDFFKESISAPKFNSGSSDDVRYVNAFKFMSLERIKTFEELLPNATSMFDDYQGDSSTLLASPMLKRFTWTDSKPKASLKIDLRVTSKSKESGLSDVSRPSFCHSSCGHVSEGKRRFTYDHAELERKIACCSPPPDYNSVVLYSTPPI"}
{"target": "FLT1", "tested at": "0.1 µM", "inhibition": "40%"}
{"target": "3-phosphoinositide-dependent protein kinase 1 (PDPK1, Homo sapiens, UniProt O15530)", "tested at": "0.1 µM", "inhibition": "-3%"}
{"target": "Phosphatidylinositol 4,5-bisphosphate 3-kinase catalytic subunit gamma isoform (PIK3CG, Homo sapiens, UniProt P48736)", "tested at": "0.1 µM", "inhibition": "3%"}
{"target": "Serine/threonine-protein kinase PAK 4 (PAK4, Homo sapiens, UniProt O96013)", "tested at": "1 µM", "inhibition": "-1%"}
{"target": "Serine/threonine-protein kinase Chk1 (CHEK1, Homo sapiens, UniProt O14757)", "tested at": "1 µM", "inhibition": "4%"}
{"target": "Dual specificity mitogen-activated protein kinase kinase 2 (MAP2K2, Homo sapiens, UniProt P36507)", "tested at": "1 µM", "inhibition": "1%"}
{"target": "Non-receptor tyrosine-protein kinase TYK2 (TYK2, Homo sapiens, UniProt P29597)", "tested at": "1 µM", "inhibition": "2%"}
{"target": "Mitogen-activated protein kinase 9 (MAPK9, Homo sapiens, UniProt P45984)", "tested at": "0.1 µM", "inhibition": "5%"}
{"target": "Aurora kinase C (AURKC, Homo sapiens, UniProt Q9UQB9)", "tested at": "1 µM", "inhibition": "1%"}
{"target": "Ephrin type-A receptor 3 (EPHA3, Homo sapiens, UniProt P29320)", "tested at": "1 µM", "inhibition": "-12%"}
{"target": "Ephrin type-A receptor 8 (EPHA8, Homo sapiens, UniProt P29322)", "tested at": "1 µM", "inhibition": "-3%"}
{"target": "Dual specificity mitogen-activated protein kinase kinase 1 (MAP2K1, Homo sapiens, UniProt Q02750)", "tested at": "0.1 µM", "inhibition": "-8%"}
{"target": "Calcium/calmodulin-dependent protein kinase type 1 (CAMK1, Homo sapiens, UniProt Q14012)", "tested at": "0.1 µM", "inhibition": "-2%"}
{"target": "FLT1", "tested at": "1 µM", "inhibition": "> 90% and 92%"}
{"data": "Series 3", "Compound": "C[C@@H]1CN(c2ccc(-c3cc(C(=O)NCCOCCOCCOCCOCCNC(=O)Cn4cc(-c5[nH]cc(C(=O)N[C@@H](CC(N)=O)c6ccc(F)c(Cl)c6)c5-c5ccc(Cl)cc5F)cn4)ccc3F)cc2NC(=O)c2c[nH]c(=O)cc2C(F)(F)F)C[C@H](C)N1C", "read-out": "thermal unfolding", "technique": "differential scanning fluorimetry", "tested at": "5.5 µM", "direction": "higher = more unfolded", "WDR5": "WD repeat-containing protein 5 (WDR5, Homo sapiens, UniProt P61964)"}
{"target": "DDB1- and CUL4-associated factor 1 (DCAF1, Homo sapiens, UniProt Q9Y4B6)", "temperature": "78.41 °C", "SYPRO Orange fluorescence": "45500 a.u."}
{"target": "WDR5", "temperature": "48.8 °C", "SYPRO Orange fluorescence": "14500 a.u."}
{"target": "WDR5", "temperature": "26.8 °C", "SYPRO Orange fluorescence": "14800 a.u."}
{"target": "WDR5", "temperature": "58.01 °C", "SYPRO Orange fluorescence": "11900 a.u."}
{"target": "WDR5", "temperature": "39.6 °C", "SYPRO Orange fluorescence": "14300 a.u."}
{"target": "WDR5", "temperature": "88.81 °C", "SYPRO Orange fluorescence": "43600 a.u."}
{"target": "WDR5", "temperature": "25.6 °C", "SYPRO Orange fluorescence": "14700 a.u."}
{"data": "Series 4", "Structure (SMILES)": "Cc1ccc(O)c(C)c1-c1cnc2[nH]c(-c3cnc(N4CCC5(CC4)CC(N4CCN(c6ccc(N[C@H]7CCC(=O)NC7=O)cc6F)CC4)CO5)nc3)cc2c1C#N (single isomer, unassigned)", "target": "Membrane-associated tyrosine- and threonine-specific cdc2-inhibitory kinase (PKMYT1, Homo sapiens, UniProt Q99640)", "mode": "degrader", "Target sequence (Q99640 1-499)": "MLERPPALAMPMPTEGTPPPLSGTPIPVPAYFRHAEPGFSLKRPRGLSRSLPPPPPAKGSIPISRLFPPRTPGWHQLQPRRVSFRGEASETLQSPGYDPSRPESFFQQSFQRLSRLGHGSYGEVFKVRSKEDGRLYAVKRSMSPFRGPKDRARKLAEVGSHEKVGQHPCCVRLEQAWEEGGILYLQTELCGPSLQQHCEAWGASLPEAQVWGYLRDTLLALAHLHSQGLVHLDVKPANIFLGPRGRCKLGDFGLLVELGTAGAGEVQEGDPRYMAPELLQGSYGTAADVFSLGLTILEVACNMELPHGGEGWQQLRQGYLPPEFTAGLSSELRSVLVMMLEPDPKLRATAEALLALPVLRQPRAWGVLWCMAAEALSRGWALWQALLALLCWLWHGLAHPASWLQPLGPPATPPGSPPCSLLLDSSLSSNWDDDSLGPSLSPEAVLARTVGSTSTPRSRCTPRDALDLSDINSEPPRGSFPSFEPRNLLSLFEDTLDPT"}
{"technique": "automated immunoblot (Jess)", "cell line": "HCC1569", "tested at": "37.04 nM", "time": "24 h", "degradation": "90%"}
{"technique": "automated immunoblot (Jess)", "tested at": "0.46 nM", "time": "24 h", "degradation": "40.2% and 39.2%"}
{"technique": "automated immunoblot (Jess)", "tested at": "333.33 nM", "time": "24 h", "degradation": "83.8% and 89.4%"}
{"technique": "automated immunoblot (Jess)", "tested at": "12.35 nM", "time": "24 h", "degradation": "88% and 86.6%"}
{"technique": "automated immunoblot (Jess)", "tested at": "1000 nM", "time": "24 h", "degradation": "77.5% and 63.9%"}
{"technique": "automated immunoblot (Jess)", "cell line": "HCC1569", "tested at": "0.02 nM", "time": "24 h", "degradation": "-11.1%"}
{"technique": "automated immunoblot (Jess)", "tested at": "0.15 nM", "time": "24 h", "degradation": "13.8% and 15.3%"}
{"technique": "automated immunoblot", "cell line": "HCC1569", "tested at": "100 nM", "degradation": "85.9% and 85% and 84.6%"}
